Assay results gathered from unrelated publications.
Parts stem from different laboratories: compare values within a part only. Positions count from the first letter of the parent shown.

Set 1 — method: universal PBM; molecule type: double-stranded DNA, one strand shown; matrix: in vitro; concentration: 600 nM; direction: higher = stronger binding
Target: Sal-like protein 4, full length isoform A (SALL4, Homo sapiens, UniProt Q9UJQ4, residues 1-1053)
Chain of UniProt Q9UJQ4 (whole entry, looked up): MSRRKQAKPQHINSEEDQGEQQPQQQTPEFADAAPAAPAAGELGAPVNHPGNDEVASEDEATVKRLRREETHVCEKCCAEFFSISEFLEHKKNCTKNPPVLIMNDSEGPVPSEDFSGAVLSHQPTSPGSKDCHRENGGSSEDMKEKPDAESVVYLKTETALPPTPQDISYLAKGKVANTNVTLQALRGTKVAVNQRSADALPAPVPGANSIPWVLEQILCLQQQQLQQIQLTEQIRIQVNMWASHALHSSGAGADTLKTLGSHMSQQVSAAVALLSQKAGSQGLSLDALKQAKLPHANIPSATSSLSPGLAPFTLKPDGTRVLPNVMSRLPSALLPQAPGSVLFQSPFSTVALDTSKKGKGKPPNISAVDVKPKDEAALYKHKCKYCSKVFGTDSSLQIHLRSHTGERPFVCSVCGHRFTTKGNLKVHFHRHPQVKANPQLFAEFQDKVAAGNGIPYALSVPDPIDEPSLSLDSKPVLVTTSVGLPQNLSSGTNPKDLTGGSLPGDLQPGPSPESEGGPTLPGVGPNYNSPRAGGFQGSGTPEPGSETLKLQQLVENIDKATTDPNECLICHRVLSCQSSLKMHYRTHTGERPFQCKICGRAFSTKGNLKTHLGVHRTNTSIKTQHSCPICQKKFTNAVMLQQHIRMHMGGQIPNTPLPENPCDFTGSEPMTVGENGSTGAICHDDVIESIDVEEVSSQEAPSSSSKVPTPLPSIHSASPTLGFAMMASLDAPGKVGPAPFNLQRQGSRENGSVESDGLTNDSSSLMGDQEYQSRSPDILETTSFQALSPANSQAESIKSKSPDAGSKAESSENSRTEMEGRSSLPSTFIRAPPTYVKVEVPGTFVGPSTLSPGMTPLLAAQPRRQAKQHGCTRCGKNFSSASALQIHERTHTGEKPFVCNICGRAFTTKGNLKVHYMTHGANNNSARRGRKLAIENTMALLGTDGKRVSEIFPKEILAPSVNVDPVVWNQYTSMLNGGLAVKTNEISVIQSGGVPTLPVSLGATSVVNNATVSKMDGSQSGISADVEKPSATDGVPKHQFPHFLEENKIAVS
Notes: 8-mer, flanks averaged, mean of replicates
Strand	E-score
TCTGTAAA	0.236
TAACGTTA	0.22
GTTTATCA	0.263
CCACGAGC	-0.192
CCGTATAG	0.0764
ATGGTTCC	-0.111
ATTGGCGC	-0.0912

Set 2 — target: CCNA1, cyclin fold, Cln2 fusion (human); method: yeast growth competition, sequencing; matrix: yeast; notes: weak parent motif; baseline: not given; direction: higher = stronger binding
Parent: CDC25A docking peptide (human); PPHRRRLLFACSP
Change	normalised enrichment score
PPSRRRLLFACSP [H3S]	0.518
PPHRRRLLFICSP [A10I]	-0.0126
PHHRRRLLFACSP [P2H]	0.295
PPHRTRLLFACSP [R5T]	0.208
PPHRPRLLFACSP [R5P]	0.174
PPHRQRLLFACSP [R5Q]	0.349
PPHRRRLLHACSP [F9H]	0.237
PPHRRRSLFACSP [L7S]	0.126
PPHRRRLLFACSG [P13G]	0.377

Set 3 — target: CRIPT, C-terminal peptide; method: DHFR complementation, deep sequencing; matrix: yeast; baseline: wild type; direction: higher = weaker binding
Notes: single substitutions, model-inferred values
Parent: ERBIN, PDZ domain 1 (human); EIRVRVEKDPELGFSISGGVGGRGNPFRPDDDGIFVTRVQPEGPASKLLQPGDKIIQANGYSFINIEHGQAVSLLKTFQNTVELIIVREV; partner TKNYKQTSV
Change	binding free energy change
D31N	0.587 kcal/mol
A45K	1.22 kcal/mol
G21Y	0.28 kcal/mol
Q57W	0.148 kcal/mol
T37G	0.934 kcal/mol
G69N	-0.16 kcal/mol
R3S	-0.151 kcal/mol
F35D	0.784 kcal/mol
L75N	0.539 kcal/mol
Q70L	0.206 kcal/mol

Other studies, line by line
Molecule	target	test	test system	setting	how to read	endpoint	result
PhoQ, residues 284 288 289 292 302 303 SCKMEA	PhoP, residues 12 14 15 18 19 AQALL (Escherichia coli, UniProt P23836)	Sort-seq, refers to: YFP reporter	E. coli	PhoQ-PhoP variant library, with: 10 µM Mg2+	baseline: high Mg2+ state, higher = stronger signaling	fold induction	14.1

A few entries again (set 2):
Change	normalised enrichment score
PPHRTRLLFACSP [R5T]	0.208
PPHRPRLLFACSP [R5P]	0.174
PPHRQRLLFACSP [R5Q]	0.349
PPHRRRLLHACSP [F9H]	0.237
